{"data": "Measured values from different studies", "note": "Parts stem from different laboratories: compare values within a part only. Changes are numbered by the printed parent chain."}
{"data": "Block 1", "target": "CREB5, bZIP domain (human)", "technique": "DHFR protein complementation", "medium": "yeast", "notes": "single substitutions, most at no-binding floor", "relative to": "wild-type JUN-FOS pair", "reading": "higher = stronger binding", "starting sequence": "JUN, bZIP domain (human); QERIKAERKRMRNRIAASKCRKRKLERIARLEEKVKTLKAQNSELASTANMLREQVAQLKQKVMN; partner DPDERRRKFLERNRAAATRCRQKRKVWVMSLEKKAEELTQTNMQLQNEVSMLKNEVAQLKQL"}
{"Variant": "E32Q", "binding fitness [natural log]": -0.464}
{"Variant": "S43E", "binding fitness [natural log]": -0.0999}
{"Variant": "E32W", "binding fitness [natural log]": -0.812}
{"Variant": "E54Q", "binding fitness [natural log]": -0.66}
{"Variant": "A57R", "binding fitness [natural log]": -0.327}
{"Variant": "S43G", "binding fitness [natural log]": -0.327}
{"Variant": "K36Q", "binding fitness [natural log]": -0.341}
{"Variant": "K39Y", "binding fitness [natural log]": -0.539}
{"Variant": "V35T", "binding fitness [natural log]": -1.06}
{"Variant": "A29D", "binding fitness [natural log]": -0.426}
{"Variant": "V56Q", "binding fitness [natural log]": -1.25}
{"Variant": "E54V", "binding fitness [natural log]": -0.629}
{"Variant": "L38V", "binding fitness [natural log]": -1.24}
{"Variant": "E33G", "binding fitness [natural log]": -0.651}
{"Variant": "A40R", "binding fitness [natural log]": -0.277}
{"Variant": "K39G", "binding fitness [natural log]": -0.46}
{"Variant": "L31W", "binding fitness [natural log]": -0.891}
{"data": "Block 2", "target": "CCND1, cyclin fold, Cln2 fusion (human)", "technique": "yeast growth competition, sequencing", "medium": "yeast", "notes": "weak parent motif", "relative to": "not given", "reading": "higher = stronger binding", "starting sequence": "DBF4B docking peptide (human); LGYLYLLLTQSLW; partner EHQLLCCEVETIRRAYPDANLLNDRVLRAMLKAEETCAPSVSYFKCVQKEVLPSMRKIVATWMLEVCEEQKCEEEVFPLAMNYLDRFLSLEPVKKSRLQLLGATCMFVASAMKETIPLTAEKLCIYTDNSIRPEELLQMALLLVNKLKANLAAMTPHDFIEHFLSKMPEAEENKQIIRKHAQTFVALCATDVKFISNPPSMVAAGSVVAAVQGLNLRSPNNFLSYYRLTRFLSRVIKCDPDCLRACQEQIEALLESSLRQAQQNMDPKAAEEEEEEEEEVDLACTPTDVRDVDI"}
{"Variant": "L12A", "normalised enrichment score": 0.107}
{"Variant": "L6A", "normalised enrichment score": 0.213}
{"Variant": "Y3A", "normalised enrichment score": -0.364}
{"Variant": "L8A", "normalised enrichment score": 0.525}
{"Variant": "G2A", "normalised enrichment score": -0.298}
{"Variant": "W13A", "normalised enrichment score": -0.149}
{"data": "Block 3", "target": "Interferon regulatory factor 5, full length, phosphomimetic (IRF5, Homo sapiens, UniProt Q13568-2, residues 1-514, K96S/S451D/S453D/S456D/S462D)", "technique": "protein-binding microarray", "form": "double-stranded DNA, one strand shown", "medium": "in vitro", "tested at": "250 nM", "notes": "60-bp whole probe", "added": "salmon DNA 0.4 mg/ml", "relative to": "random background probes", "reading": "higher = stronger binding", "shared flanks, not repeated": "GCCTAGCAC … GTCTTGATTCGCTTGACGCTGCTG"}
{"Strand": "GACGATTTCAGTCTCGGGACGTGCTAG", "log fluorescence [z-score]": 1.3}
{"Strand": "TTTGATATCGGGTTTCGATTAGTGCTA", "log fluorescence [z-score]": 8.27}
{"Strand": "ATAGATTTCAGACTGGATTAGTGCTAG", "log fluorescence [z-score]": 0.357}
{"Strand": "AACTGCTGCCGTCCACCACTGTGCTAG", "log fluorescence [z-score]": -0.496}
{"Strand": "TCAAATTTTAATAACACACTGTGCTAG", "log fluorescence [z-score]": 0.55}
{"Strand": "TTAGATATAGGGACTGGATTAGTGCTA", "log fluorescence [z-score]": 0.0544}
{"Strand": "TTAGTTTTCAATTTTTGCATGTGCTAG", "log fluorescence [z-score]": 1.87}
{"Strand": "GACGGTATCCAACTGCTGACGTGCTAG", "log fluorescence [z-score]": -0.345}
{"Strand": "TTAGGACTGGGTCTCGGTTAGTGCTAG", "log fluorescence [z-score]": 0.0145}
{"Strand": "TTAGGAATCGACTATCGGTTAGTGCTA", "log fluorescence [z-score]": 7.58}
{"Strand": "TTAGGACTGGGGACTGGCTTAGTGCTA", "log fluorescence [z-score]": -0.324}
{"Strand": "TCATTTCTACTTCTCTTACTGTGCTAG", "log fluorescence [z-score]": 1.84}
{"Strand": "TTACGTATCCTTTTCCTTTAGTGCTAG", "log fluorescence [z-score]": 1.58}
{"Strand": "TTCCCTCTCCCCTCTTGTGCTGTGCTA", "log fluorescence [z-score]": -0.0567}
{"Strand": "TTGATTGTGGCTTTTTAATGGTGCTAG", "log fluorescence [z-score]": -0.142}
{"Strand": "TTAGGACTGCTTCTCATTTAGTGCTAG", "log fluorescence [z-score]": -0.222}
{"Strand": "GACGGTTTCCTTCTCCTGGCGTGCTAG", "log fluorescence [z-score]": 1.01}
{"Strand": "TTCGATATCAGACTGGATTAGTGCTAG", "log fluorescence [z-score]": 1.08}
{"Strand": "GACGATCCCAGACTGGAGACGTGCTAG", "log fluorescence [z-score]": -0.411}
{"data": "Block 4", "target": "Ras GTPase-activating protein-binding protein 1, full length (G3BP1, Homo sapiens, UniProt Q13283)", "technique": "RNA Bind-n-Seq", "form": "RNA", "medium": "in vitro", "tested at": "200 nM", "notes": "whole 134-nt RNA, ends assumed", "added": "150 mM KCl", "relative to": "input library", "reading": "higher = stronger binding", "sequence of UniProt Q13283 (whole entry, looked up)": "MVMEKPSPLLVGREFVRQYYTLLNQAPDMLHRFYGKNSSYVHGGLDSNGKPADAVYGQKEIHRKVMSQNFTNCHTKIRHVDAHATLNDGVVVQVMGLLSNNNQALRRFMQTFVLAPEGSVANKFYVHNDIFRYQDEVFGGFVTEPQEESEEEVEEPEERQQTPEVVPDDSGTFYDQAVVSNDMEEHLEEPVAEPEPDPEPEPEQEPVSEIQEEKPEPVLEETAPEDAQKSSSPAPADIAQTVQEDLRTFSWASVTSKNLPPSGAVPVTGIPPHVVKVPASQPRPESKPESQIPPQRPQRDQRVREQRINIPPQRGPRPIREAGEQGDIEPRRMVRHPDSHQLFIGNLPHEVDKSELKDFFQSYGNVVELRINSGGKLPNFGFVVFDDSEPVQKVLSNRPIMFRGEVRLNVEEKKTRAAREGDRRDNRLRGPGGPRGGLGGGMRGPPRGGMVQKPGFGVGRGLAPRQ"}
{"Strand": "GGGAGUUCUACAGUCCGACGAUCUGGCCCUGGUGGCAUGCGGGGAGGAGGAGGUGGCCUCAUGGAUCGUGGUGGUCCCGGUGGAAUGUUCAGAGGUGGCCGUGGUGGAGACAGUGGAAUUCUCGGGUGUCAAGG", "log2 enrichment": 0.624}
{"Strand": "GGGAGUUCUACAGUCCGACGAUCGUCCUGUGCUACACAUCGUAUGUACCGAAUCGGGUUUUUGGGAAAAAGGGAAAAAGGGAAAGUAUUAUGUUACGCCGUUCGGAUCUGCACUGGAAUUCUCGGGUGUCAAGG", "log2 enrichment": -0.549}
{"Strand": "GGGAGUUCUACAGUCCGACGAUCAAGUCCUGUGCUACACAUCGUAUGUACCGAAUCGGGUUUUGGGUUUUGGGUUUUGGGAAAGUAUUAUGUUACGCCGUUCGGAUCUGCACUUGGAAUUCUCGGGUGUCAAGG", "log2 enrichment": -0.118}
{"Strand": "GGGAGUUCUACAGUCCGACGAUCCAAGUCCUGUGCUACACAUCGUAUGUACCGAAUCGGGAAAGGGAAAGGGAAAGGGAAAGUAUUAUGUUACGCCGUUCGGAUCUGCACUUCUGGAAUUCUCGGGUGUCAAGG", "log2 enrichment": 0.424}
{"Strand": "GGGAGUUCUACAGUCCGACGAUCCAAGUCCUGUGCUACACAUCGUAUGUACCGAAUCGGAAAAAGGAAAAAAAGGUGGAAAGUAUUAUGUUACGCCGUUCGGAUCUGCACUUCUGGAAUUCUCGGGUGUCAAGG", "log2 enrichment": -1.04}
{"Strand": "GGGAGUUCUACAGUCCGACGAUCCACAGACAACACGCACCCACAAAGACACAGAGGGAAGGGGUUGGGAUGGGGACAGGGUGCACAGCAGGGCGGGGUAGGACCCCAGCCCCUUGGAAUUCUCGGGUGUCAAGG", "log2 enrichment": 1.89}
{"Strand": "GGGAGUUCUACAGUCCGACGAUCCUCAAGUCCUGUGCUACACAUCGUAUGUACCGAAUCGGGAGGGGAGGGGAGGGGAAAGUAUUAUGUUACGCCGUUCGGAUCUGCACUUCCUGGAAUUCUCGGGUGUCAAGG", "log2 enrichment": 1.49}
{"Strand": "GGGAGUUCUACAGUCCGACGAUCGCAGGAAGUAAAAACAAAUUGAAAUGCUUCGGAUAGUGGCAGGGGUGGGGGUUGCUAAGGAAAGGGUGGGAUGGGAGUGGGUAAAGAGUUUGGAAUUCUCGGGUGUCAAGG", "log2 enrichment": 1.07}
{"Strand": "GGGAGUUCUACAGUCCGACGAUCUUAUAAUUGAUGAUCAUCCUGAAGUAACAGUAAUUGAAGAUCCCCAGUCAAAUUUGAAUGAUGAUGGUUUUACUGAAGUGGUAUCCAAAAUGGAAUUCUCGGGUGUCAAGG", "log2 enrichment": -0.485}
{"data": "Single results of other studies"}
{"Substance": "PhoQ, residues 284 288 289 292 302 303 GASLAW", "target": "PhoP, residues 12 14 15 18 19 QWHVF (Escherichia coli, UniProt P23836)", "assay": "Sort-seq, item: YFP reporter", "test system": "E. coli", "setting": "PhoQ-PhoP variant library, added: 10 µM Mg2+", "how to read": "relative to: high Mg2+ state, higher = stronger signaling", "endpoint": "fold induction", "result": 0.829}
{"note": "For quick reference, copied from above (block 4):"}
{"Strand": "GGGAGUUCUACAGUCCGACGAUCGUCCUGUGCUACACAUCGUAUGUACCGAAUCGGGUUUUUGGGAAAAAGGGAAAAAGGGAAAGUAUUAUGUUACGCCGUUCGGAUCUGCACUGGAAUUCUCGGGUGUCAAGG", "log2 enrichment": -0.549}
{"Strand": "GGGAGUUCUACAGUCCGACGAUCAAGUCCUGUGCUACACAUCGUAUGUACCGAAUCGGGUUUUGGGUUUUGGGUUUUGGGAAAGUAUUAUGUUACGCCGUUCGGAUCUGCACUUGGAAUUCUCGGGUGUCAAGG", "log2 enrichment": -0.118}
{"Strand": "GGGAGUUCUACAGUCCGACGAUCCAAGUCCUGUGCUACACAUCGUAUGUACCGAAUCGGGAAAGGGAAAGGGAAAGGGAAAGUAUUAUGUUACGCCGUUCGGAUCUGCACUUCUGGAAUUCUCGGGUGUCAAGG", "log2 enrichment": 0.424}
{"Strand": "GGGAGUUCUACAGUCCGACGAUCCAAGUCCUGUGCUACACAUCGUAUGUACCGAAUCGGAAAAAGGAAAAAAAGGUGGAAAGUAUUAUGUUACGCCGUUCGGAUCUGCACUUCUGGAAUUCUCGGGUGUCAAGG", "log2 enrichment": -1.04}
{"Strand": "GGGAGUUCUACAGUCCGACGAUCCACAGACAACACGCACCCACAAAGACACAGAGGGAAGGGGUUGGGAUGGGGACAGGGUGCACAGCAGGGCGGGGUAGGACCCCAGCCCCUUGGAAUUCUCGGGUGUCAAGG", "log2 enrichment": 1.89}
{"Strand": "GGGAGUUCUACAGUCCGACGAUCCUCAAGUCCUGUGCUACACAUCGUAUGUACCGAAUCGGGAGGGGAGGGGAGGGGAAAGUAUUAUGUUACGCCGUUCGGAUCUGCACUUCCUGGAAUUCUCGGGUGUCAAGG", "log2 enrichment": 1.49}
{"Strand": "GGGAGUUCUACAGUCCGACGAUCGCAGGAAGUAAAAACAAAUUGAAAUGCUUCGGAUAGUGGCAGGGGUGGGGGUUGCUAAGGAAAGGGUGGGAUGGGAGUGGGUAAAGAGUUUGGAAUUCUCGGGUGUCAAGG", "log2 enrichment": 1.07}
{"Strand": "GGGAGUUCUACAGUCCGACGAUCUUAUAAUUGAUGAUCAUCCUGAAGUAACAGUAAUUGAAGAUCCCCAGUCAAAUUUGAAUGAUGAUGGUUUUACUGAAGUGGUAUCCAAAAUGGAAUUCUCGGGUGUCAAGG", "log2 enrichment": -0.485}
